Measured values from different studies.
Numbered parts are unrelated; each lists some results of a single study. Substitutions count along the parent as printed.

Block 1 — technique: EMSA with sequencing; form: double-stranded DNA, one strand shown; sample: in vitro; tested at: 10 and 20 nM; relative to: negative control set to 0; reading: higher = stronger binding
Target: Hepatocyte nuclear factor 3-alpha (Foxa1, Mus musculus, UniProt P35582, residues 1-468, full length assumed)
Setting: whole designed probe, mean of two concentrations, ends assumed
Construct (chain): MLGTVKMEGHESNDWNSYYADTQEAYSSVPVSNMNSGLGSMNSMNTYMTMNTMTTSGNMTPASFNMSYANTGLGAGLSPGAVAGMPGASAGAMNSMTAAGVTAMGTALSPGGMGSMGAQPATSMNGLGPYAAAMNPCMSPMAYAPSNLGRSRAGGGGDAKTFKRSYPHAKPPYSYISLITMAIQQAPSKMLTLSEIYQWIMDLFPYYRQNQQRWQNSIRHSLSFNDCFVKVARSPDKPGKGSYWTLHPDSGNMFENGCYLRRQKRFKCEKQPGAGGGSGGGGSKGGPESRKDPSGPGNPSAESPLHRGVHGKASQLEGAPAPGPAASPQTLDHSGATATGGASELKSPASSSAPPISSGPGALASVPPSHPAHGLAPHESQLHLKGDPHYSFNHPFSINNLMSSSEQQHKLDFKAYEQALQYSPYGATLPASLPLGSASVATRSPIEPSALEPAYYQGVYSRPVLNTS
For `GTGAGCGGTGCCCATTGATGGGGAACTCTGGGTCATTTCCTTTTCTGGATTTAACTATTCAAAAGTCGGGGCCAGAGATACAGGAAAGTAGAGGCAGAGATCTTATTTATCGAAGTGTAAGATGGCATAGAAATTATCCTTAATCACTACTCCAGTTAGACCTTGTTCAGTCTGATGTTAGTGGTCTTTGCAGAGGATACTATATACAGTTTCCTCAAATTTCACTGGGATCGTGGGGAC`, “normalised bound fraction” read -0.0202 ratio.
`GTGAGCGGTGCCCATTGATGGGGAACTTATGTATACAGAATGACTGACTACAACTATGGCAAAAACAAACAACAACAACAACAACAACAACAACAACAAACCCTCAATAGAGGAAAAAGTAAACAAGAAACAGATCAAATTATTAACACAATGACATTTGAATGGTGACAAAATTGGTGATTTTAGTTTTTCTTTCCTTTTAAAATGTTTTTAAAGCACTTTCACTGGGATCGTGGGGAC` — result for “normalised bound fraction”: 0.467 ratio.
Under “normalised bound fraction”, `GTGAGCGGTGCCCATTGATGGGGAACGGAAGCACTAGAGGTAATATTTCCTTACTGGACCCCAGTCCTAAATTACCTACTTTTATCCAAATTAGGCTTATTTTAAGATATTTCAAAAAGTAAACATGTAAAATGGTGAAATACACATGTTATGTCTGATGTTAGGCTTTACCTGGATTTTTAATCCCGTAAGACAAGAAATGTGAATATCAGAATGACTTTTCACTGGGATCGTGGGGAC` is recorded as 0.24 ratio.
For `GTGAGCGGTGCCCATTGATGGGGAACAGATTGCTTTGTGATTGTTTTGCCAGATTTTGCTTTCACCCACAAAAACACTAAGCTCTGCCAACCAGTTCGGCCATTTTGTAAGTTAGCAAAATAAACACTAAAGTGAAATGGCGGCTTTTGGGCGGGGCTCCCACAGGCTGGCTCCTTTTAAGTGGAATGTTGCTGTGCTGCCCTCTTGTGGCCATTTGGGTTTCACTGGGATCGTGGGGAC`, “normalised bound fraction” read 0.255 ratio.
`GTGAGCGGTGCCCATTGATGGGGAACAAAACCAAAAACCAAAGCTTATTCACTCTTAATCTAAGTAAGCAAGTTTGGATAGACCCCCACTAAGTATGAGCATAGTCTTTAATGCTACAATGTAAACAAATATACTTATGTCATATAAACTACTTTATTATTCTGGCAAGTTGGGAACCATTGATATAGGATTTGTGAGACTCAATAATAATAGACTTTTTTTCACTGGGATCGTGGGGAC`: “normalised bound fraction” 0.533 ratio.

Block 2 — technique: DHFR PCA, deep sequencing; sample: yeast; added: (+)-ABA 710 µM; relative to: wild-type fitted maximum; reading: higher = stronger binding
Target: ABI1, truncated, D143A, DHFR fusion (Arabidopsis thaliana)
Setting: methotrexate growth selection, single substitutions
Starting sequence: PYL1, truncated, DHFR fusion (Arabidopsis thaliana); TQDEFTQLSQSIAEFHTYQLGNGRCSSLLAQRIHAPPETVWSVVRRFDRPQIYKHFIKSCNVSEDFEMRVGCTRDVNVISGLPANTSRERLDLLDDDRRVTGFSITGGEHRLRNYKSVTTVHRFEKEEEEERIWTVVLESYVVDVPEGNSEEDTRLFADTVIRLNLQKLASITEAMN; partner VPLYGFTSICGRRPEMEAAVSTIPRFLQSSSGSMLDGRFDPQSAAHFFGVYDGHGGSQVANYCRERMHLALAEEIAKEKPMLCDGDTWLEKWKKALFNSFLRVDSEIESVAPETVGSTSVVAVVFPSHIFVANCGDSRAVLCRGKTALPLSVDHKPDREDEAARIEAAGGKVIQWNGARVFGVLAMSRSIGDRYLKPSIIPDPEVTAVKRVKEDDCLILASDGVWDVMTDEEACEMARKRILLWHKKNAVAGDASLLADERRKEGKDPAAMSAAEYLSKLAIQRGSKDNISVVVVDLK
`T154G` — result for “relative binding score”: 43.2%.
For `S150K`, “relative binding score” read 88.5%.
Under “relative binding score”, `V121Q` is recorded as -2.74%.
Under “relative binding score”, `V44I` is recorded as 101%.
For `V62K`, “relative binding score” read 77%.
Under “relative binding score”, `E38K` is recorded as 91%.
`I52E`: “relative binding score” 105%.
For `A84H`, “relative binding score” read 51.4%.
`T39H` — result for “relative binding score”: 105%.
For `V161F`, “relative binding score” read 95.6%.
For `D95Q`, “relative binding score” read 90.7%.
`G23N` — result for “relative binding score”: 104%.
`E128W` — result for “relative binding score”: 104%.
For `E152T`, “relative binding score” read 99.6%.
`N114D`: “relative binding score” 88.7%.
`F157L` — result for “relative binding score”: 93.9%.
`E64G` — result for “relative binding score”: 105%.
`R123G`: “relative binding score” 105%.

Block 3 — technique: RNA Bind-n-Seq; form: RNA; sample: in vitro; tested at: 15 pmol; setting: 4-mer, random 30-nt RNA, single round; added: 3 µM RocA, 2 mM AMP-PNP; relative to: mean of 4-mers; reading: higher = stronger binding
Target: Eukaryotic initiation factor 4A-I (EIF4A1, Homo sapiens, UniProt P60842, residues 1-406, full length assumed)
UniProt P60842, sequence (whole entry, looked up): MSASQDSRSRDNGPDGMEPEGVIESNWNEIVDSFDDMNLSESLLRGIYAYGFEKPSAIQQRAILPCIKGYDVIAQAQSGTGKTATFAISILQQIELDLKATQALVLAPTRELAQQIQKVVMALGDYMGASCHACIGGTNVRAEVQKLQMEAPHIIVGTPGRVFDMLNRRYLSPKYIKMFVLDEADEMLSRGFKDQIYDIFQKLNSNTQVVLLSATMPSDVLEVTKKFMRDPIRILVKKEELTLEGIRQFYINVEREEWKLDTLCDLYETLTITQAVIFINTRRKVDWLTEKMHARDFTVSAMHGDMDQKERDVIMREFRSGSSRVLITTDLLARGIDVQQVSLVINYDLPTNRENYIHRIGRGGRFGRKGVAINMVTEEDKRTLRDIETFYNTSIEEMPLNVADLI
Under “4-mer enrichment Z-score”, `GGUC` is recorded as -0.506.
For `AUGA`, “4-mer enrichment Z-score” read 1.18.
`AUCC` — result for “4-mer enrichment Z-score”: -1.18.
Under “4-mer enrichment Z-score”, `UCAA` is recorded as -0.962.
Under “4-mer enrichment Z-score”, `GGAU` is recorded as 0.936.
`GCGG` — result for “4-mer enrichment Z-score”: 1.08.
`UCGA` — result for “4-mer enrichment Z-score”: -0.136.
`AGCG`: “4-mer enrichment Z-score” 0.733.
Under “4-mer enrichment Z-score”, `ACCA` is recorded as -1.05.
For `CAAG`, “4-mer enrichment Z-score” read 0.139.
For `ACAG`, “4-mer enrichment Z-score” read -0.439.
`UUGC` — result for “4-mer enrichment Z-score”: -0.488.
`GGUG` — result for “4-mer enrichment Z-score”: 2.21.
`CCCA` — result for “4-mer enrichment Z-score”: -1.18.
`UACU`: “4-mer enrichment Z-score” -0.748.
`CACU`: “4-mer enrichment Z-score” -1.35.
`GGGG` — result for “4-mer enrichment Z-score”: 2.27.
Under “4-mer enrichment Z-score”, `AUUU` is recorded as 0.134.

Block 4 — target: CCND1, cyclin fold, Cln2 fusion (human); technique: yeast growth competition, sequencing; sample: yeast; setting: weak parent motif; relative to: not given; reading: higher = stronger binding
Starting sequence: CDC6 docking peptide (human); TLKGRRLVFDNQL; partner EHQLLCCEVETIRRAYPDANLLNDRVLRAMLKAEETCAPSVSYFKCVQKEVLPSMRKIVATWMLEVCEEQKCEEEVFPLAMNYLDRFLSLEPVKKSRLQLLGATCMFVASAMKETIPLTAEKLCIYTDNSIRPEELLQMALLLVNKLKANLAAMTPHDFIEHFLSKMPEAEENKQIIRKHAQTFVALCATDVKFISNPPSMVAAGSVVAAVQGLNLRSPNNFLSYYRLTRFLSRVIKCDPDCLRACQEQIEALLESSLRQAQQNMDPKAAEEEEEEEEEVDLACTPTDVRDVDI
For `Q12V`, “normalised enrichment score” read 0.623.
`F9E`: “normalised enrichment score” -0.125.
For `L13A`, “normalised enrichment score” read 0.565.
`G4K`: “normalised enrichment score” 0.129.
`T1Q` — result for “normalised enrichment score”: -0.382.
`V8N`: “normalised enrichment score” 1.37.
`L13H` — result for “normalised enrichment score”: -0.21.
`L2Q` — result for “normalised enrichment score”: -0.0627.
`V8S` — result for “normalised enrichment score”: 1.01.
`V8R` — result for “normalised enrichment score”: 0.444.
`Q12S`: “normalised enrichment score” 0.123.
`L7E`: “normalised enrichment score” 0.23.
`N11F` — result for “normalised enrichment score”: 0.978.
For `L7A`, “normalised enrichment score” read -0.127.
For `L7H`, “normalised enrichment score” read -0.276.
Under “normalised enrichment score”, `L7F` is recorded as -0.0927.
`F9A`: “normalised enrichment score” -0.292.
`V8Q` — result for “normalised enrichment score”: 0.0555.
`G4Q`: “normalised enrichment score” 0.451.
For `D10A`, “normalised enrichment score” read -0.516.
`G4M`: “normalised enrichment score” 0.518.
`F9P` — result for “normalised enrichment score”: 0.119.
For `N11K`, “normalised enrichment score” read 0.0408.
Under “normalised enrichment score”, `R5W` is recorded as 0.448.
Under “normalised enrichment score”, `L2D` is recorded as 0.113.

Block 5 — target: JUNB, bZIP domain (human); technique: DHFR protein complementation; sample: yeast; relative to: wild-type JUN-FOS pair; reading: higher = stronger binding
Setting: single substitutions, most at no-binding floor
Starting sequence: JUN, bZIP domain (human); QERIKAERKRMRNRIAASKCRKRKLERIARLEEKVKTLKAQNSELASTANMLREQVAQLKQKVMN; partner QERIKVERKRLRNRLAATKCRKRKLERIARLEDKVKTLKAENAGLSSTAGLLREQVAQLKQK
For `V56Y`, the binding fitness was -1.2 natural log.
`N42R` gave a binding fitness of -1.24 natural log.
For `A49Y`, the binding fitness was -1.39 natural log.
With `I28P` the binding fitness was -1.5 natural log.
For `S47L`, the binding fitness was -1.05 natural log.
With `A46L` the binding fitness was -0.971 natural log.
With `T37L` the binding fitness was -0.941 natural log.
`T37A` gave a binding fitness of -0.907 natural log.
With `T48K` the binding fitness was -1.19 natural log.

Excerpt of the above (block 3):
`GGUG` — result for “4-mer enrichment Z-score”: 2.21.
`CCCA` — result for “4-mer enrichment Z-score”: -1.18.
`UACU`: “4-mer enrichment Z-score” -0.748.
`CACU`: “4-mer enrichment Z-score” -1.35.
`GGGG` — result for “4-mer enrichment Z-score”: 2.27.
